Measurements of several laboratories.

| Structure (SMILES) | assay | system | conditions | scale | endpoint | result |
| --- | --- | --- | --- | --- | --- | --- |
| Oc1cc(O)cc(O)c1 | mitochondrial swelling | BALB/cByJ female mouse liver mitochondria | 30 min, added: succinate + rotenone | baseline: CaCl2 maximal swelling | EC20 | > 800 µM |
| Cn1c(-c2ccc(C(N)=O)cc2F)nnc1C(C)(C)Oc1c(F)cc(Cl)cc1F | – | young non-Japanese humans, plasma | oral, 2 mg, day 1, single dose | – | mean half-life | 93 h |
| CC1=C(COc2ccc(Br)cc2)C(=O)c2ccccc2C1=O | cyclic voltammetry | DMSO | first wave, vs Ag/AgCl | – | cathodic peak potential | -0.627 V |
| CS(=O)(=O)n1cc2c(n1)CN([C@H]1CO[C@H](c3cc(F)ccc3F)[C@@H](N)C1)C2 | – | healthy Japanese men, plasma | oral, 25 mg once weekly, day 15 | – | Ctrough | 16.4 nM |
| CCOC(=O)c1ccc(O)cc1 | cytochrome c release, ELISA | BALB/cByJ female mouse liver mitochondria | 30 min | baseline: alamethicin maximal release | EC20 | > 400 µM |
| O=C(Cc1cccc(OC(F)(F)F)c1)Nc1ccc(CCCCc2nnc(NC(=O)Cc3ccccn3)s2)nn1 | – | human patients, plasma | oral, 100 mg three times daily fasted, cycle 1 day 15 steady state | – | AUC(0-8h) | 2150 ng·h/mL |
| O=C(c1cccnc1-c1ccncc1)N1CCC(O)(Cc2ccccc2)CC1 | – | healthy human, plasma | oral, 600 mg once daily, day 1, arithmetic mean | – | Vz/F | 1320 L |
| O=C(O)CCCCC(=O)O | – | human hemodialysis patients, plasma ultrafiltrate | pre-treatment | baseline: hemodialysis over normal subjects | free concentration ratio | 23 |
| CC(C)C[C@H](NC(=O)[C@H](CCc1ccccc1)NC(=O)CN1CCOCC1)C(=O)N[C@@H](Cc1ccccc1)C(=O)N[C@@H](CC(C)C)C(=O)[C@@]1(C)CO1 | LC-MS | human, plasma | intravenous push, 11 mg/m^2 | – | Vss | 42.5 L |
| CN1CCN(CCCN2c3ccccc3Sc3ccc(C(F)(F)F)cc32)CC1 | in situ brain perfusion | rat | no efflux inhibition | – | log intrinsic permeability | -3 |
| O=C1CN(/N=C/c2ccc(-c3ccc([N+](=O)[O-])cc3)o2)C(O)=N1 | – | Sprague-Dawley rat, male, blood | oral, 100 mg/kg, 24 h | – | ALP | decreased |
| CC[C@H](C)[C@H](NC(=O)[C@H](CC(N)=O)NC(=O)[C@H](C)NC(=O)[C@H](CCCNC(=N)N)NC(=O)[C@H](CCCNC(=N)N)NC(=O)[C@H](CC(N)=O)NC(=O)[C@H](CCCNC(=N)N)NC(=O)[C@H](CCCNC(=N)N)NC(=O)[C@H](C)NC(=O)[C@@H](NC(=O)[C@H](CC(C)C)NC(=O)[C@@H](NC(=O)[C@@H](NC(=O)[C@H](CS)NC(=O)[C@H](CCCCN)NC(=O)[C@@H](N)CCCNC(=N)N)C(C)C)[C@@H](C)CC)C(C)C)C(=O)N[C@H](C(=O)N[C@H](C(=O)N[C@@H](CC(C)C)C(=O)N[C@@H](CS)C(=O)N[C@@H](CCCNC(=N)N)C(=O)O)[C@@H](C)CC)C(C)C | LC-MS | PBS | 0.1 mg/mL | – | single disulfide form | 50% |
| CONC(=N)c1ccc(-c2ccc(-c3ccc(C(=N)NOC)cc3)o2)cc1 | M1 formation by O-demethylation, substrate | pooled human intestinal microsomes | high-Km component | – | intrinsic clearance | 10 µL/min/mg |
| Cc1ccc(Nc2c(F)cccc2Cl)c(CC(=O)O)c1 | mitochondrial swelling | BALB/cByJ female mouse liver mitochondria | 30 min, added: succinate + rotenone | baseline: CaCl2 maximal swelling | EC20 | > 200 µM |
| COc1ccc(-c2coc3cc(O)ccc3c2=O)cc1O | – | extracted rat plasma, autosampler | 2.25 ng/mL, 24 h, 4 °C, post-preparative stability, low QC | – | accuracy | 97.6 % nominal |
| CC[C@H](C)[C@H](NC(=O)[C@H](Cc1ccccc1)NC(=O)[C@H](CCC(=O)O)NC(=O)[C@H](CCCCNC(=O)COCCOCCNC(=O)COCCOCCNC(=O)CC[C@H](NC(=O)CCCCCCCCCCCCCCCCC(=O)O)C(=O)O)NC(=O)[C@H](C)NC(=O)[C@H](C)NC(=O)[C@H](CCC(N)=O)NC(=O)CNC(=O)[C@H](CCC(=O)O)NC(=O)[C@H](CC(C)C)NC(=O)[C@H](Cc1ccc(O)cc1)NC(=O)[C@H](CO)NC(=O)[C@H](CO)NC(=O)[C@@H](NC(=O)[C@H](CC(=O)O)NC(=O)[C@H](CO)NC(=O)[C@@H](NC(=O)[C@H](Cc1ccccc1)NC(=O)[C@@H](NC(=O)CNC(=O)[C@H](CCC(=O)O)NC(=O)C(C)(C)NC(=O)[C@@H](N)Cc1cnc[nH]1)[C@@H](C)O)[C@@H](C)O)C(C)C)C(=O)N[C@@H](C)C(=O)N[C@@H](Cc1c[nH]c2ccccc12)C(=O)N[C@@H](CC(C)C)C(=O)N[C@H](C(=O)N[C@@H](CCCNC(=N)N)C(=O)NCC(=O)N[C@@H](CCCNC(=N)N)C(=O)NCC(=O)O)C(C)C | – | healthy male Caucasian subjects, plasma | subcutaneous, 1.0 mg, steady state, once weekly, geometric mean | – | AUC(0-168 h) | 7.49 µM·h |

A few entries again:
| Structure (SMILES) | assay | system | conditions | scale | endpoint | result |
| --- | --- | --- | --- | --- | --- | --- |
| O=C(c1cccnc1-c1ccncc1)N1CCC(O)(Cc2ccccc2)CC1 | – | healthy human, plasma | oral, 600 mg once daily, day 1, arithmetic mean | – | Vz/F | 1320 L |
